Measured values pooled from the literature.
Every numbered part comes from another study and shows a few of its results, in no order.

Sample 1 — technique: protein-binding microarray; molecule type: hairpin DNA; medium: in vitro; tested at: not given; baseline: not given; reading: higher = stronger binding
Target: Interferon regulatory factor 1, DNA-binding domain (IRF1, Homo sapiens, UniProt P10914, residues 1-114)
Notes: whole hairpin DNA, median over replicate spots
Residues (chain): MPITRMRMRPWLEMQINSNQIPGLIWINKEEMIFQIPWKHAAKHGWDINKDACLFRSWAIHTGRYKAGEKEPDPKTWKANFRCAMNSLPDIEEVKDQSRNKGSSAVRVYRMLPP
Sequence	median fluorescence [a.u.]
GAGGCCCGAATGTGAAACGCCTCCTGGCGTTTCACATTCGGGCCTCACAC	596
GAGGCCCGAAAGTGAAACGCCTCCTGGCGTTTCACTTTCGGGCCTCACAC (5mC at 7)	1800
GAGGCCCGAAAACGAAACGCCTCCTGGCGTTTCGTTTTCGGGCCTCACAC	1770
GAGGCCCGTAAGCGAAACGCCTCCTGGCGTTTCGCTTACGGGCCTCACAC	528
GAGGCCCGACGGCGAAACGCCTCCTGGCGTTTCGCCGTCGGGCCTCACAC	534
GAGGCCTGAAAGTGAAACGCCTCCTGGCGTTTCACTTTCAGGCCTCACAC	1840
GAGGCCCGAAAGCGAAAGGCCTCCTGGCCTTTCGCTTTCGGGCCTCACAC (5mC at 29)	959
GAGGCCCGAAAGCGAAACGCCTCCTGGCGTTTCGCTTTCGGGCCTCACAC (5mC at 7 13 39)	818
GAGGCCCGAAAGCCGAACGCCTCCTGGCGTTCGGCTTTCGGGCCTCACAC (5mC at 14)	513
GAGGCCCGAAAGCGAAACGCCTCCTGGCGTTTCGCTTTCGGGCCTCACAC (5mC at 18)	1870
GAGGCCCGAAACCGAAACGCCTCCTGGCGTTTCGGTTTCGGGCCTCACAC (5mC at 12)	2100
GAGGCCCGAAAGCGTAACGCCTCCTGGCGTTACGCTTTCGGGCCTCACAC	530
GAGGCCCGAAAGCGAAACGCCTCCTGGCGTTTCGCTTTCGGGCCTCACAC (5mC at 13 39)	856
GAGGCCCGAAAGCGAAACGCCTCCTGGCGTTTCGCTTTCGGGCCTCACAC (5mC at 7 13 33 39)	712
GAGGCCCGCGAGTGAAACGCCTCCTGGCGTTTCACTCGCGGGCCTCACAC (5mC at 9 37)	522
GAGGCCCGAAAGCGCGACGCCTCCTGGCGTCGCGCTTTCGGGCCTCACAC (5mC at 31)	505
GAGGCCCGACGGTGAAACGCCTCCTGGCGTTTCACCGTCGGGCCTCACAC (5mC at 10)	558
GAGGCCCAAAAGCGAAACGCCTCCTGGCGTTTCGCTTTTGGGCCTCACAC	1360
GAGGCCCGAAATCGAAACGCCTCCTGGCGTTTCGATTTCGGGCCTCACAC	2280
GAGGCCCGAAAGCGAAAGGCCTCCTGGCCTTTCGCTTTCGGGCCTCACAC	1760
GAGGCCCGAAAGTCGAACGCCTCCTGGCGTTCGACTTTCGGGCCTCACAC (5mC at 14)	570
GAGGCCCCGAAGCGAAACGCCTCCTGGCGTTTCGCTTCGGGGCCTCACAC (5mC at 38)	574
GAGGCCCGAAAGCGGAACGCCTCCTGGCGTTCCGCTTTCGGGCCTCACAC (5mC at 32)	530
GAGGCCCGAAAGTGCGACGCCTCCTGGCGTCGCACTTTCGGGCCTCACAC (5mC at 31)	514

Sample 2 — technique: RNA Bind-n-Seq; molecule type: RNA; medium: in vitro; tested at: not given; baseline: input RNA pool; reading: higher = stronger binding
Target: RING finger protein unkempt homolog, zinc fingers 1-6, GST-SBP tag (UNK, Homo sapiens, UniProt Q9C0B0, residues 30-357)
Notes: RNA with constant flanks, human-mouse chimeric sites, ends assumed
Shared flanks, not repeated: GGGAGUUCUACAGUCCGACGAUC … CAACAGAGGAUUGAGCAUCA
Target sequence (chain): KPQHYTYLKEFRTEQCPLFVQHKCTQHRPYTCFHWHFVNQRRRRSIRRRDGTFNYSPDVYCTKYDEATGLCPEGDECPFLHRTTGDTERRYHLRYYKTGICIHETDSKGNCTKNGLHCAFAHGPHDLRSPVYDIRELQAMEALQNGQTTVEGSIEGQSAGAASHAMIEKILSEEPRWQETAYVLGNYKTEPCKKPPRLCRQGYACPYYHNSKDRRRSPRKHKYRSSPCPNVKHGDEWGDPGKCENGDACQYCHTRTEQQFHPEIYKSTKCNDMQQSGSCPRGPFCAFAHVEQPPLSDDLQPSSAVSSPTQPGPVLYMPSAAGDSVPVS
Sequence	bound/input enrichment [ratio]
AAAGAGUGGAUAGAGUGUGCACACGGGAUCGGUGGGACCCGGGCGAAAAAGGAGUGCAAGAUAGAAUUCGAUGACUUCGAAGAGUGCUUGCUUCGGUACAAAACGAUGAGACGUGCACAU	0.254
GCGGCAGAAUCAUGGAGGACAUAAUGCAGCUCCCCAAAGCGCGCGUCAACGCCGGCAUGUUACCACAGUAUAUCGACCGGCCCGUGUGCUUCGUGGGGAAGCUGGAAAAGAUUCAUCCCA	0.0785
CGCUGGCCCAAGCUGAUGGACUCUGAUGGCCUCCAUCUCUCAGGCACGUGUGCCUUCUCUUAGUCCCUGUUUUCGGGUCACAAAGCUUCUCAGUACUGUGGUUUGAAAGCAGUUAUGUUG	0.332
GUACUGCAGCAGCAGGGAAAACUGCAGGAAGCUCUGAUGCAUUAUAAAGAAGCCAUACGAAUCAGUCCUACCUUUGCUGAUGCCUACUCCAAUAUGGGAAACACUCUAAAGGAGAUGCAG	0.165
AUAAAGGCCAUGUUGAGUGGUCCAGGUCAGUUUGCUGAGAAUGAAACCAACGAGGUCAAUUUUAGAGAGAUCCCCUCACAUGUGCUAUCAAAAGUGUGCAUGUAUUUUACCUACAAGGUC	0.184
AACAGAUUGUCUUUAAGCAUUCCAAGCGAGAAUGCUGGGGUGAUCAUUGUUGCCCAUGUGCCUUCUGUAAUAGAUGGAAUGCUGUUCCAUGUUACAUCUUUCCUUCAUUGCAUAUUUGUU	0.118
AGAGCCCAGGAUGUUGAUGCUACAAACCCAAAUUAUGAAAUUAUGUGUAUGAUCAGAGACUUCAGAGGGAGCUUGGAUUACAGACCCCUAACAACAGCAGAUCCUAUUGAUGAACAUAGG	0.371
ACCUCCCCCUCCCGCCUCACCCCACCCCCGCUUUUUGGAAAGUUUUUGGCGUUUCUUUUCCUUCCCCAUACAAAGUGAUUACAGUUUCCCCCGCAAGUGGGGCUUGAUUCACCCUUCGGA	4.45
CACAGAGCAGCACCUACCCCCUCCUCCUUUCCACACCUGCAAACCCUUUUACUUGGGCUGAAUAUUUAGUGUAAUUACAUCUCAGCUUUUGAGGGCUCUGUGGCAAAUUCCCGGAUUAAA	0.976
UCCCAAAUCCAGCAGCUCCUUGAAAUAUUGAGACAAACACUCCACACACAGGGAAGGCGAUAACAUUGUACAUUGGUUUACAUUUUUUCCCCCUGUGUUUUCUAGGGGAGGUCAUAGUGC	0.271
CACAGAGGCACCACCCCCCCCUCCUCCUUUCCACACCUGCAAACUCUUUUACUUGGGCUGAAUAUUUAGUGUAAUUACAUCUCAGCUUUGAGGGCUCCUGUGGCAAAUUCCCGGAUUAAA	1.87

Sample 3 — technique: protein-binding microarray; molecule type: double-stranded DNA, one strand shown; medium: in vitro; tested at: 250 nM; notes: 60-bp whole probe; added: salmon DNA 0.4 mg/ml; baseline: random background probes; reading: higher = stronger binding; shared flanks, not repeated: GCCTAGCAC … GTCTTGATTCGCTTGACGCTGCTG
Target: Interferon regulatory factor 5, full length, phosphomimetic (IRF5, Homo sapiens, UniProt Q13568-2, residues 1-514, K96S/S451D/S453D/S456D/S462D)
Sequence	log fluorescence
GACGATTCCAGTTTTGAGACGTGCTAG	0.155 z-score
GACGGTTCCAGTTTCGAGACGTGCTAG	5.2 z-score
GTATGGATGTGTTTTAAATAGTGCTAG	0.233 z-score
TTAGGTCTCCTACTGCGTTAGTGCTAG	-0.293 z-score
GGAAGCTTCTTTTTTATTCTGTGCTAG	0.657 z-score
TGAGAACTGGGGACTGGATTAGTGCTA	-0.552 z-score
GACGGTTTCGGGTATCGGGATGTGCTA	8.43 z-score
TTAGATATCAGACTGGACTAGTGCTAG	-0.0582 z-score
GACGAACTGGGGTATCGTGACGTGCTA	0.011 z-score
GACGGTTTCGACACTGGGGTCGTGCTA	4.77 z-score
TTAGAACTGGGGACAGGATTAGTGCTA	-0.532 z-score
TTAGATTTCGGGACAGGATTAGTGCTA	3.13 z-score
TTAGATATCAGACTGTATTAGTGCTAG	0.49 z-score
GACGGACTGAACACTGGGGACGTGCTA	-0.535 z-score
GACGGTCTCATTATCCTGACGTGCTAG	0.00195 z-score
TCAGATTTTCCCATGAGACTGTGCTAG	0.345 z-score
TTAGGACTGGACACTGGGTCAGTGCTA	-0.635 z-score
TCATAAAACAACTTTCAAACTGTGCTA	1.38 z-score
TTAGGTATCGGCATCGGTTAGTGCTAG	3.06 z-score
TTAGATATCAGTCTCGTTTAGTGCTAG	1.58 z-score
GACGAACTGGGGTTTCGACACGTGCTA	1.53 z-score
TTAGATTCCAGTGTCGATTAGTGCTAG	0.678 z-score
GACGGTATCAGTATCGGGACGTGCTAG	3.14 z-score
TCATTTTTTTTTCTACTACTGTGCTAG	1.66 z-score
TTAAGTATCGACACTGGGTTAGTGCTA	3.99 z-score

Sample 4 — technique: protein binding microarray; molecule type: double-stranded DNA, one strand shown; medium: in vitro; tested at: not given; baseline: not given; reading: higher = stronger binding
Target: Histone acetyltransferase KAT6A, winged helix 2, GST fusion (KAT6A, Homo sapiens, UniProt Q92794, residues 85-181)
Notes: 8-mer, flanks averaged, mean of 2 arrays, mostly near background
Target sequence (chain): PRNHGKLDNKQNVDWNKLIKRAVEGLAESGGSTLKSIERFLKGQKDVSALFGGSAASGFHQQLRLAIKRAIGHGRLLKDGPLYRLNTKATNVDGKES
Sequence	E-score
AGTCAACG	-0.118
GAGCCAAC	0.00259
GGGCTCAC	0.0201
TCGTGACA	0.033
ACAGGTGC	-0.033
GGCACCTA	-0.123
AGCCCGCT	0.0188
AATATGCA	-0.0211
ACACGACC	0.0693
CATTCGAG	-0.0766
CTAAGTTC	-0.0939
AGGCGGCG	0.123
ATTCCACA	0.0458
AAGGGAAC	-0.0321
AAAAAACA	0.0973
AAGTCTAA	-0.134
AGCCTTCC	-0.0233
AGACTCGC	-0.0432
AAGTAAGG	-0.0659
GAGCCCCA	0.0593
TCAATGCA	-0.0489

For quick reference, copied from above (sample 2):
Sequence	bound/input enrichment [ratio]
ACCUCCCCCUCCCGCCUCACCCCACCCCCGCUUUUUGGAAAGUUUUUGGCGUUUCUUUUCCUUCCCCAUACAAAGUGAUUACAGUUUCCCCCGCAAGUGGGGCUUGAUUCACCCUUCGGA	4.45
AGAGCCCAGGAUGUUGAUGCUACAAACCCAAAUUAUGAAAUUAUGUGUAUGAUCAGAGACUUCAGAGGGAGCUUGGAUUACAGACCCCUAACAACAGCAGAUCCUAUUGAUGAACAUAGG	0.371
CACAGAGCAGCACCUACCCCCUCCUCCUUUCCACACCUGCAAACCCUUUUACUUGGGCUGAAUAUUUAGUGUAAUUACAUCUCAGCUUUUGAGGGCUCUGUGGCAAAUUCCCGGAUUAAA	0.976
CGCUGGCCCAAGCUGAUGGACUCUGAUGGCCUCCAUCUCUCAGGCACGUGUGCCUUCUCUUAGUCCCUGUUUUCGGGUCACAAAGCUUCUCAGUACUGUGGUUUGAAAGCAGUUAUGUUG	0.332
GCGGCAGAAUCAUGGAGGACAUAAUGCAGCUCCCCAAAGCGCGCGUCAACGCCGGCAUGUUACCACAGUAUAUCGACCGGCCCGUGUGCUUCGUGGGGAAGCUGGAAAAGAUUCAUCCCA	0.0785
GUACUGCAGCAGCAGGGAAAACUGCAGGAAGCUCUGAUGCAUUAUAAAGAAGCCAUACGAAUCAGUCCUACCUUUGCUGAUGCCUACUCCAAUAUGGGAAACACUCUAAAGGAGAUGCAG	0.165
